Assay results of several laboratories.
Compare with care: the assays were run in different laboratories. ± marks the error that the study gave.

SMILES	assay	system	setting	how to read	endpoint	result
CN1Cc2c(Cl)cc(Cl)cc2C(c2cccc(S(=O)(=O)NCCOCCOCCOCCNC(=O)C(O)C(O)C(=O)NCCOCCOCCOCCNS(=O)(=O)c3cccc(C4CN(C)Cc5c(Cl)cc(Cl)cc54)c3)c2)C1 (centres unmarked)		Sprague Dawley rats	oral, 3 mg/kg, 16 h		fecal water content	56 % by weight
CC(C)OC(=O)[C@H](CO)NCc1cc(Cl)c(OCc2cccc(-c3ccccc3)c2Br)cc1OCc1cccnc1		hPD-L1 MC-38 tumour, humanised hPD-1 C57BL/6 mouse	oral, 10 mg/kg × 21		tumour weight inhibition	67.9%
COc1ccc(C2CC(c3ccc(C)cc3)=Nc3ccccc3S2)cc1 (centres unmarked)		rat, normal, overnight fasted	oral, 20 mg/kg, 60 min, oral glucose tolerance test, with: glucose 3 g/kg oral		blood glucose	117 ± 4.71 mg/dL
CCCCCCCCCC(=O)OCc1cn(-c2ccc(Cl)cc2)nn1	aPTT	human plasma	10 µM		clotting time	48.3 ± 0.7 s
[2H]c1c(NS(C)(=O)=O)c([2H])c2c(C(=O)c3ccc(OCCCN(CCCC)CCCC)cc3)c(CCCC)oc2c1[2H]		dog persistent AF model	intravenous, 3 mg/kg	reference: animals	AF conversion to sinus rhythm	50%
C=C1C[C@@]23CC[C@H]4[C@@](C)(CCC[C@@]4(C)C(=O)O[C@@H]4O[C@H](CO)[C@@H](O)[C@H](O)[C@H]4O)[C@@H]2CC[C@]1(O[C@@H]1O[C@H](CO[C@H]2O[C@H](CO)[C@@H](O)[C@H](O)[C@H]2O)[C@@H](O)[C@H](O)[C@H]1O[C@@H]1O[C@H](CO)[C@@H](O)[C@H](O)[C@H]1O)C3		C57BL/6N mouse, high-fat diet	dose not given, week 13, with: 2 g/kg glucose ip		glucose tolerance	no effect
CC(C)C1=C(OC(=O)CCc2ccccc2)C(=O)C2=C(C=C[C@H]3C(C)(C)CCC[C@]23C)C1=O	oxygen radical absorbance capacity, fluorometric				ORAC	0.757 Trolox equivalents
CN(Cc1ccc(/C=C/C(=O)Nc2ccccc2N)cc1)CC12CC3CC(CC(C3)C1)C2	forced swim test	rat	i.p., 0.025 mg/kg, 7 days	reference: vehicle	immobility score	no effect
C(=C/c1ccccc1)/c1ccccc1	cell proliferation, CellTiter-Glo	cord blood CD34+ cells, human	24 h, lowest dose with significant inhibition	reference: vehicle	lowest effective concentration	250 to 500 µM
CC/C=C\C/C=C\C/C=C\C/C=C\C/C=C\CCCCOC(CC)C(=O)O (centres unmarked)		ob/ob mice	dose not given, 4 weeks	reference: control	plasma insulin change	-76%
CNc1oc(-c2cccc3ccccc23)nc1C#N		C57BL/6J mice, low-dose STZ diabetes	ip, 48 mg/kg daily	reference: non-STZ controls	plasma insulin	decreased
CC(C)(CCCC/C=C/CCCCCC(C)(C)C(=O)O)C(=O)O	VLDL-TG secretion	C57BL/6J mice	100 mg/kg, with: tyloxapol 600 mg/kg		cholesterol AUC(0-4 h) decrease	58.9%
O=[N+]([O-])c1cc(Br)cc([N+](=O)[O-])c1NS(=O)(=O)c1ccc(Br)cc1	RNA-Seq	Arabidopsis thaliana Col seedlings, ten-day-old	50 µM, 3 h		number of specifically responsive genes	936
CCOCn1cc(F)c(=O)n(C(=O)c2cccc(C(=O)Oc3cc(OC(=O)c4cc(OC(=O)CC)nc(OC(=O)CC)c4)c(Cl)cn3)c2)c1=O		nude rat, KM12C xenograft	oral, 100 to 112.5 µmol/kg once daily, 14 days		tumour growth inhibition	inhibited
O/N=C/c1cnn(-c2ccccc2)n1	aPTT	human plasma	1 µM		clotting time	51.5 ± 0.8 s
C=C(c1cc(F)c(C(=O)O)c(F)c1)c1cc2c(cc1C)C(C)(C)CCC2(C)C	RNA sequencing, item: Upp1	rat, brain	dose not given, 24 h	reference: vehicle	log2 fold change	0.78
Cc1cc(Nc2cc3ncccc3c(N[C@@H]3C[C@H]4CC[C@@H](C3)N4CCC#N)n2)n[nH]1		moderate-severe ulcerative colitis patients	20 mg, day 28	reference: patients	endoscopic response	20%
CC1=C(/C=C/C(=O)N2CCN(C(N)=O)CC2)C(C)(C)CCC1		T17M RHO transgenic mouse, posterior retina	dose not given, 7 weeks	reference: vehicle	ONL thickness	~50%
C=C(c1ccc(C(=O)O)c(F)c1)c1cc2c(cc1C)C(C)(C)C=CC2(C)C	RNA sequencing, item: Cyp26a1 mRNA	rat, brain	dose not given, 24 h, single dose	reference: vehicle	log2 fold change	0.15
Cc1ccc(S(=O)(=O)N(CCc2nnc(S)o2)c2ccc(Cl)cc2)cc1		rat	75 mg/kg, 5 h, with: carrageenan		paw edema inhibition	75.1%
COc1cc(/C=C/C(O)=C/C(=O)/C=C/c2ccc(O[C@@H]3O[C@H](C(=O)O)[C@@H](O)[C@H](O)[C@H]3O)c(OC)c2)ccc1O	immunohistochemistry	HCT-116 (KRAS mutant, TP53 null), mouse xenograft, tumour	ip, 90 mg/kg, day 21	reference: control mice	NF-κB staining	decreased

SMILES	assay	system	setting	how to read	endpoint	result
CC(=O)c1cnc(N)nc1N1CC[C@H]1c1nn2ccc(Cl)c2c(=O)n1-c1ccccc1	B cell activation, inhibitor, item: CD86	female Wistar rat, blood	oral, 2 h, with: anti-IgD		ED50	~0.14 mg/kg
CC(C)[C@H](NC(=O)CN)C(=O)N[C@@H](CCCCN)C(=O)NCC(=O)N[C@@H](CC(=O)O)C(=O)N[C@@H](CCCCN)C(=O)NCC(=O)N[C@@H](CC(N)=O)C(=O)N1CCC[C@H]1C(=O)NCC(=O)N[C@@H](Cc1c[nH]c2ccccc12)C(=O)N1CCC[C@H]1C(=O)NCC(=O)N[C@@H](C)C(=O)N1CCC[C@H]1C(=O)O		K1735 M4 melanoma, mouse	200 µg/mL coating, 40 min, peptide-coated plates	reference: input cells	maximal spreading cells	~70%
CCOP(=O)(CC(=O)Nc1ccc(S(=O)(=O)N(CC(N)=O)c2ccc(N(CC(N)=O)S(=O)(=O)c3ccc(OC)cc3)c3ccccc23)cc1)OCC	active avoidance test	APP/PS1 mice	intragastric, 40 mg/kg, 60 days, lentivirus intracerebroventricular	reference: untreated APP/PS1	active avoidance count	increased
CC[C@H]1[C@@H](O)[C@@H]2[C@H](CC[C@]3(C)[C@@H]([C@H](C)CCOS(=O)(=O)[O-])CC[C@@H]23)[C@@]2(C)CC[C@@H](O)C[C@@H]12.[Na+]	EchoMRI	ob/ob NASH mouse model	oral, 3 mg/kg once daily, 8 weeks		whole-body lean mass	17.6 ± 0.5 g
Cc1cc(O)c(C=O)c2c1C(=O)Oc1c(CO)c(O)c3c(c1O2)C(O)OC3=O (centres unmarked)	histopathology	rat, male, streptozotocin-induced diabetes, testis	10 mg/kg, 9 weeks		seminiferous tubule diameter	235 ± 10.4 µm
OCc1cnn(-c2ccccc2)n1	plasma recalcification time	human plasma	1 µM		clotting time	260 ± 10 s
S=c1n(CN2CCN(c3ccccn3)CC2)nc(C23CC4CC(CC(C4)C2)C3)n1-c1ccccc1		rat carrageenan paw oedema	intraperitoneal, 20 mg/kg, 4 h after carrageenan	reference: vehicle control	paw oedema inhibition	33.52 ± 0.23%
COc1ccc2c(c1)c(CC(=O)OCOC(C)=O)c(C)n2C(=O)c1ccc(Cl)cc1	hot plate test	BALB/c mice	50 mg/kg, 90 min		latency of nociceptive response	16 ± 0.54 s
C[C@H](NC(=O)COC(=O)[C@H](C)NC(=O)CO)C(=O)O		water	pH 6, 50 °C		depolymerization rate constant	0.914 h⁻¹
COc1c2c(cc3oc(COC4OC(CO)C(O)C(O)C4O)cc(=O)c13)OC(C(C)(C)O)C2 (centres unmarked)	analgesic effect	Kunming mouse, female	oral, 4 mg/kg, 0 h, 55 °C, before dosing, 30 s cut-off		hot plate latency	9.18 ± 1.34 s
CC(C)(O)c1ccc(N2Cc3c(ccnc3-c3ccc(F)cc3OCC(F)(F)F)C2=O)cc1	item: glucosylceramide	mouse, cerebral cortex	oral, 10 mg/kg		time of maximal reduction	16 h
COc1ccc(-n2cc(CO)nn2)cc1	prothrombin time	human plasma	10 µM		clotting time	15.7 ± 2 s
CCCCCCCCCCCCCCCC(=O)N[C@@H](CCC(=O)NCCCC[C@H](NC(=O)[C@H](CC(=O)O)NC(=O)[C@H](CO)NC(=O)[C@@H](NC(=O)[C@H](Cc1ccccc1)NC(=O)[C@@H](NC(=O)CNC(=O)[C@H](CCC(N)=O)NC(=O)[C@H](CO)NC(=O)[C@@H](N)Cc1c[nH]cn1)[C@@H](C)O)[C@@H](C)O)C(=O)N[C@@H](CO)C(=O)N[C@@H](CCC(=O)O)C(=O)N[C@@H](Cc1ccc(O)cc1)C(=O)N[C@@H](CC(C)C)C(=O)N[C@@H](CC(=O)O)C(=O)N[C@@H](CO)C(=O)N[C@@H](CCC(=O)O)C(=O)N[C@@H](CCCNC(=N)N)C(=O)N[C@@H](C)C(=O)N[C@@H](CCCNC(=N)N)C(=O)N[C@@H](CC(=O)O)C(=O)N[C@@H](Cc1ccccc1)C(=O)N[C@H](C(=O)N[C@@H](C)C(=O)N[C@@H](Cc1c[nH]c2ccccc12)C(=O)N[C@@H](CC(C)C)C(=O)N[C@@H](CCC(=O)O)C(=O)N[C@@H](C)C(=O)NCC(=O)NCC(=O)O)C(C)C)C(=O)O	intraperitoneal glucose tolerance test	diet-induced obese mouse	subcutaneous, 10 nmol/kg, 1 h before glucose, with: glucose 1.5 g/kg intraperitoneal		glucose AUC	785 mmol·min/L
COc1ccc2c(c1)c(CC(=O)OCC(=O)OC(C)(C)C)c(C)n2C(=O)c1ccc(Cl)cc1	hot plate test	BALB/c mice	100 mg/kg, 90 min		latency of nociceptive response	16.9 ± 1.4 s
C=C1C(=O)OC2C1CCC1(C)OC13CC1OC1(C)C23 (single isomer, unassigned)		alveolar liver cancer PC-1, outbred white rat	intraperitoneal, maximum tolerated dose, daily, 5 days		tumour growth inhibition	59 to 88%
Nn1c(S)nnc1CCN(c1ccc(Cl)cc1)S(=O)(=O)c1ccccc1	paw oedema	rat carrageenan oedema	200 mg/kg, 1 h		inhibition	43.6%
Cc1cc2c(cc1C1(c3ncc(C(=O)O)cn3)CC1)C(C)(C)CCC2(C)C	RNA sequencing, item: Emr4 mRNA	rat, brain	dose not given, 24 h, single dose	reference: vehicle	log2 fold change	0.45
CCCCOCc1cn(-c2cc(Cl)ccc2Cl)nn1	plasma recalcification time	human plasma	1 µM		clotting time	244 ± 11 s
O=C(O)Cc1ccccc1Nc1c(Cl)cccc1Cl	paw edema	rat carrageenan paw edema	oral, 12.5 mg/kg, 4 h	reference: vehicle	inhibition	94.3%
Cc1nc(C)c(C=[N+]([O-])C(C)(C)C)nc1C	Western blot, item: HO-1	mouse, MPTP model, substantia nigra nuclei	10 mg/kg		protein level increase	23.9%

For quick reference, copied from above:
SMILES	assay	system	setting	how to read	endpoint	result
C=C(c1ccc(C(=O)O)c(F)c1)c1cc2c(cc1C)C(C)(C)C=CC2(C)C	RNA sequencing, item: Cyp26a1 mRNA	rat, brain	dose not given, 24 h, single dose	reference: vehicle	log2 fold change	0.15
CNc1oc(-c2cccc3ccccc23)nc1C#N		C57BL/6J mice, low-dose STZ diabetes	ip, 48 mg/kg daily	reference: non-STZ controls	plasma insulin	decreased
COc1ccc2c(c1)c(CC(=O)OCOC(C)=O)c(C)n2C(=O)c1ccc(Cl)cc1	hot plate test	BALB/c mice	50 mg/kg, 90 min		latency of nociceptive response	16 ± 0.54 s
CC(C)OC(=O)[C@H](CO)NCc1cc(Cl)c(OCc2cccc(-c3ccccc3)c2Br)cc1OCc1cccnc1		hPD-L1 MC-38 tumour, humanised hPD-1 C57BL/6 mouse	oral, 10 mg/kg × 21		tumour weight inhibition	67.9%
